Measured values collected from several papers.
± gives the spread as reported. Values after ≈ are worked out from the molar mass of the structure shown.

Compound	test	system	setting	how to read	measurement	value
O=C(Nc1cnccc1-c1ccc([18F])cc1)c1ccnc(NC(=O)C2CC2)c1	ex vivo gamma counting	GSK-3β transgenic mice, late-stage, thalamus	intravenous, 1.26 MBq/animal, 120 min, mean, no P-gp inhibitor		SUV	0.11
COc1ccc(N2CCOCC2)c2sc(NC(=O)c3ccnc(CN4CCCC4)c3)nc12	in situ salt screening	0.1 M hydrochloric acid			pH of saturated solution	1.33
O=Cc1cc(C(F)(F)F)cc(C(F)(F)F)c1	chemical stability, HPLC-MS	borate buffered saline	pH 10.2, no N-acetyl-lysine		degradation rate constant	0.1 h⁻¹
C=C[C@]1(C)C[C@@H](OC(=O)CSc2ccc(NC(=O)c3ccco3)cc2)[C@]2(C)[C@H](C)CC[C@]3(CCC(=O)[C@H]32)[C@@H](C)[C@@H]1O		M. gallisepticum-infected chickens, plasma	intramuscular, 80 mg/kg single dose		central volume (V1/F)	6.78 L/kg
Cc1cc(C)n(CCN(CCN)CCCCCCNC(=O)[C@@H](N)Cc2c[nH]cn2)n1.[99Tc+].[C-]#[O+].[C-]#[O+].[C-]#[O+]		BALB/c nude mice, A549 xenograft, tumour	dose not given, 4 h	reference: 15 min post-injection	tumour activity reduction	~43%
CC(C)C[C@H](NC(=O)[C@@H](CCCCNC(=O)[C@@H](Cc1ccccc1)NC(=O)CCCCCCCNC(=O)CN1CCN(CC(=O)O)CCN(CC(=O)O)CCN(CC(=O)O)CC1)NC(=O)[C@H](Cc1ccc(O)cc1)NC(=O)[C@H](CO)NC(=O)[C@H](Cc1c[nH]c2ccccc12)NC(=O)[C@H](Cc1c[nH]cn1)NC(=O)[C@@H]1CCC(=O)N1)C(=O)N[C@@H](CCCNC(=N)N)C(=O)N1CCC[C@H]1C(=O)NCC(N)=O [indium-111 labelled]		male athymic nude mice, DU-145 xenograft, urine	intravenous, dose not given, 1 h, together with: 10 µg unlabelled blocking peptide		urinary excretion	83.5 ± 4.25%
Cc1noc(C)c1Cn1cc(N2C(=O)CN(Cc3cccc(O[C@@H]4O[C@H](C(=O)O)[C@@H](O)[C@H](O)[C@H]4O)c3)C2=O)cn1		Sprague-Dawley rat, male	oral, 30 mg/kg of parent drug, 0.5 h		plasma concentration	8050 ng/mL
CCCCN1C(=O)c2cccc3c(NCCCCCCCCCCN4CCOCC4)ccc(c23)C1=O		DMF			absorption maximum	444 nm
N=C(N)NCCC[C@@H]1NC(=O)[C@H](CO)NC(=O)[C@@H](NC(=O)[C@H](CO)NC(=O)[C@H](CO)NC(=O)[C@H](Cc2c[nH]c3ccccc23)NC(=O)CNC(=O)[C@H](CO)NC(=O)[C@@H](N)Cc2c[nH]c3ccccc23)CSSC[C@@H](C(=O)NCC(=O)O)NC(=O)[C@H](CO)NC1=O		human, plasma	i.v., 5 mg/kg thrice weekly, 4 weeks, median		AUCinf	343 ng·h/mL
CN([O-])C(=O)CN1CCN(CC(=O)N(C)[O-])CCN(Cc2ccccn2)CC1.[89Zr+4]		mouse, muscle	intravenous, 24 h		tracer uptake	0.26 %ID/g
CCCCN1C(=O)c2cccc3c(NCCCN4CCOCC4)ccc(c23)C1=O		ethylene glycol			absorption maximum	447 nm
CSCc1cn(-c2cccc(C(=O)N3CCC(c4nc(-c5ccccc5)n[nH]4)CC3)c2)nn1		CD-1 mouse liver microsomes	pH 7.4, together with: NADPH		intrinsic clearance, scaled	4340 mL/min/kg
CC(=O)N([O-])CCCCCNC(=O)CCC(=O)N([O-])CCCCCNC(=O)CCC(=O)N([O-])CCCCCN.[89Zr+4]		mouse, liver	4 h		tracer uptake	2.09 %ID/g
COc1cccc(OC)c1-c1cc(C(=O)NC2(C(=O)O)C3CC4CC(C3)CC2C4)nn1-c1ccc(C(=O)N(C)CCCN(C)C(=O)[C@H](CCCCNC(=O)[C@H](CC(C)C)NC(=O)C2OC2C(=O)O)NC(=O)CN2CCN(CC(=O)[O-])CCN(CC(=O)[O-])CCN(CC(=O)[O-])CC2)cc1C(C)C.[177Lu+3] (mixture of isomers)		mouse, HT-29 xenograft, liver	4 h post injection		tissue uptake	0.94 %ID/g
CCCC[C@H](NC(=O)COCCOCCNC(=O)CN1CCN(CC(=O)O)CCN(CC(=O)O)CC1)C(=O)N[C@H]1CC(=O)NCCCC[C@@H](C(N)=O)NC(=O)[C@H](Cc2c[nH]c3ccccc23)NC(=O)[C@H](CCCNC(=N)N)NC(=O)[C@@H](Cc2ccccc2)NC(=O)[C@H](Cc2c[nH]cn2)NC1=O [fluorine-18 labelled]		C57 mice, B16/F10 melanoma, urine	intravenous, 0.37 MBq, 1 h		urinary excretion	78.3 ± 3.19%
[123I]c1ccc2nc(-c3ccc(-n4ccnn4)nc3)cn2c1		male Wistar rat, blood	intravenous, 4 MBq, 6 h		tracer uptake	0.103 %ID/g
C=C(NC(=O)c1csc(-c2nc3c(cc2O)-c2nc(cs2)C(=O)NC(C(C)O)C(=O)NC(=C(C)OC)c2nc(cs2)C(=O)NC2c4nc(cs4)C(=O)NC(COC(=O)c4c5c6c(cccc6n4O)COC(=O)C(OC4CC(C)(O)C(N(C)C)C(C)O4)C2OC5)c2nc-3cs2)n1)C(N)=O (centres unmarked)		cynomolgus monkey, male, plasma	intravenous infusion, 3 mg/kg single dose		MRT(0-last)	1.61 h
O=C(Nc1cnccc1-c1ccc([18F])nc1)c1ccnc(NC(=O)C2CC2)c1	PET imaging	FVB/NJ mice, both sexes, liver	intravenous, 120 min, together with: tariquidar 15 mg/kg iv, ≥2 h before		median SUV	5.95
CN1CCC[C@]1(C)/C=C/S(=O)(=O)NC(=O)Nc1c2c(cc3c1C(O)CC3)CCC2 (some centres unmarked)		human, plasma	oral, 50 mg twice daily of parent drug, day 14, metabolite of dosed drug		AUC(0-tau)	108 µg·h/mL

Compound	test	system	setting	how to read	measurement	value
N#C[C@@H]1CC(F)(F)CN1C(=O)CNC(=O)c1ccnc2c(NC(=O)[C@H](CCCCNC(=O)CCOCCOCCOCCOCCOCCOCCNC(=O)CN3CCN(CC(=O)[O-])CCN(CC(=O)[O-])CCN(CC(=O)[O-])CC3)NC(=O)CCCc3ccc(I)cc3)cccc12.[177Lu+3]		mouse, U-87 MG tumour xenograft, lung	1 h		tissue uptake	10 ± 4.4 %ID/g
C/C(N)=N/C(=N\S(=O)(=O)c1ccc(C(F)(F)F)cc1)N1C[C@H](c2ccccc2)C(c2ccc(Cl)cc2)=N1		male C57BL/6 mouse, liver	intravenous, 10 mg/kg		Cmax	27700 ng/mL
CCCCN1C(=O)c2cccc3c(NCCCCCCN4CCOCC4)ccc(c23)C1=O		acetonitrile			absorption maximum	433 nm
COC1C=COC2(C)Oc3c(C)c(O)c4c(c3C2=O)C2=NC3(CCN(CC(C)C)CC3)NC2=C(NC(=O)C(C)=CC=CC(C)C(O)C(C)C(O)C(C)C(OC(=O)c2cccnc2)C1C)C4=O (centres unmarked)		CD-1 mouse female, plasma	intravenous, 5 mg/kg		clearance	2.98 mL/min/kg
COc1ccnc(C(=O)N[C@H]2COC(=O)[C@H](Cc3ccccc3)[C@@H](OC(=O)C(C)C)[C@H](C)OC2=O)c1O		cabbage	foliar, dose not given		residue level	0.015 mg/kg
CC(C)(C)[C@H](NC(=O)C(F)F)C(=O)N1C[C@H]2[C@@H]([C@H]1C(=O)N[C@H](C#N)C[C@@H]1CCCNC1=O)C2(C)C		rat hepatocytes	scaled to liver		intrinsic clearance	46.6 mL/min/kg
CSCC[C@H](N)C(=O)N[C@@H](CO)C(=O)N[C@H](C(=O)N[C@@H](C)C(=O)NCC(=O)N[C@@H](CC(C)C)C(=O)N[C@@H](CCCCN)C(=O)N[C@@H](CCCCN)C(=O)N[C@@H](CCC(N)=O)C(=O)N[C@@H](Cc1c[nH]c2ccccc12)C(=O)N[C@@H](Cc1ccc(O)cc1)C(=O)N[C@@H](CCCCN)C(=O)N[C@@H](C)C(=O)N[C@@H](CO)C(=O)N[C@@H](CCC(N)=O)C(=O)N[C@@H](CC(C)C)C(=O)N[C@H](C(=O)N[C@@H](CO)C(=O)N[C@@H](CCC(=O)O)C(=O)N[C@@H](CCCCN)C(=O)N[C@H](C(=O)NCC(=O)NCC(=O)N[C@@H](C)C(N)=O)C(C)C)C(C)C)C(C)C	circular dichroism	aqueous TFE	50 µM, pH 7.4, 20 °C		TFE midpoint	2.73 ± 0.05 M
CC(C)(O)c1ncc([S@](N)(=O)=NC(=O)Nc2c3c(cc4c2CCC4)CCC3)s1	item: general, administration-site conditions	healthy human	oral, dose not given, all active doses pooled		subjects with TEAEs	17%
O=C(O)/C=C\c1cc2ccoc2cc1O[C@@H]1O[C@H](CO)[C@@H](O)[C@H](O)[C@H]1O	post-procedure stability	rat plasma	8 ng/mL, 1 h, room temperature		accuracy	102%
CCCCN1C(=O)c2cccc3c(NCCCCCN4CCOCC4)ccc(c23)C1=O		chloroform			absorption maximum	428 nm
CN1CCC[C@]1(C)/C=C/S(=O)(=O)NC(=O)Nc1c2c(cc3c1CCC3)CC=C2		human, plasma	oral, 50 mg twice daily of parent drug, day 14, metabolite of dosed drug		AUC(0-tau)	262 µg·h/mL
CN(O)C(=O)CCC(=O)NCCCN(CCCCN(CCCNC(=O)CCC(=O)N(C)O)C(=O)CCC(=O)N(C)O)C(=O)CCC(=O)N(C)O.[89Zr]		mouse, pancreas	24 h		tracer uptake	0.01 %ID/g
COc1ccc(Nc2nc(Nc3ccc(OCCOCC[18F])cc3)ncc2Br)cc1		ICR mice, S180 tumour	intravenous, 370 kBq, 5 min	reference: tumour over muscle	uptake ratio	2.86
O=c1c2ccccc2[se]n1CCCCCCn1[se]c2ccccc2c1=O	shake-flask, RP-HPLC	10% SBE-β-cyclodextrin solution	24 h, 25 °C		solubility	71 ± 4 µg/mL (≈ 148 µM)
CCCCN1C(=O)c2cccc3c(NCCN4CCOCC4)ccc(c23)C1=O		dichloromethane			absorption maximum	428 nm
C=CC(=O)Nc1cc(Nc2nccc(-c3cn(C)c4ccccc34)n2)c(OC)cc1N(C)CCNC	storage stability	human dried blood spots	5 h, -80 °C, LLOQ level		recovery	97.8%
Cc1c(Cc2cc(F)cc(OC(C)(C)C(=O)O)c2)c2ccc(C(=O)N[C@@H](C)c3cccc(C(C)(C)C)c3)cc2n1CC(C)C	metabolic stability	mouse, liver microsomes			half-life	> 60 min
Cc1cc(NC(=O)c2ccc(Br)cc2)n[nH]1		octanol/buffer	67 µM, pH 7.4		logD	2.78
O=C(NCCN1C(=O)CCC1=O)[O][Pt]12([O]C(=O)NCCN3C(=O)CCC3=O)([NH][C@@H]3CCCC[C@H]3[NH]1)[O]C(=O)C(=O)[O]2	AUC-based, item: platinum	BALB/c mice, CT26 tumour	iv	reference: tumour over kidney	tumour to organ ratio	0.3

A few entries again:
Compound	test	system	setting	how to read	measurement	value
COc1ccnc(C(=O)N[C@H]2COC(=O)[C@H](Cc3ccccc3)[C@@H](OC(=O)C(C)C)[C@H](C)OC2=O)c1O		cabbage	foliar, dose not given		residue level	0.015 mg/kg
O=C(Nc1cnccc1-c1ccc([18F])nc1)c1ccnc(NC(=O)C2CC2)c1	PET imaging	FVB/NJ mice, both sexes, liver	intravenous, 120 min, together with: tariquidar 15 mg/kg iv, ≥2 h before		median SUV	5.95
